{"data": "Measurements collected from several papers", "note": "A part holds a random share of what one study measured.", "sequence of UniProt Q8TBX8 (whole entry, looked up)": "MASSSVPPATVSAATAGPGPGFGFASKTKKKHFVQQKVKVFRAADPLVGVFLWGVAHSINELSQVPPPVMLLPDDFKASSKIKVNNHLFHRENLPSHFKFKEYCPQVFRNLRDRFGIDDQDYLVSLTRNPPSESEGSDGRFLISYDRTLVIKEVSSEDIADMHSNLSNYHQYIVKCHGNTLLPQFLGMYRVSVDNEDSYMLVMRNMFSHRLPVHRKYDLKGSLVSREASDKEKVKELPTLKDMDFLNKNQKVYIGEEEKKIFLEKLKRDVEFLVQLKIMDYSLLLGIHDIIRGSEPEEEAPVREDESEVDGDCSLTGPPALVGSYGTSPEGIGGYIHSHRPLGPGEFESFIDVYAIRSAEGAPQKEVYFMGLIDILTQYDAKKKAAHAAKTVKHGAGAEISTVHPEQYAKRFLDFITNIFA", "sequence of UniProt Q9UK32 (whole entry, looked up)": "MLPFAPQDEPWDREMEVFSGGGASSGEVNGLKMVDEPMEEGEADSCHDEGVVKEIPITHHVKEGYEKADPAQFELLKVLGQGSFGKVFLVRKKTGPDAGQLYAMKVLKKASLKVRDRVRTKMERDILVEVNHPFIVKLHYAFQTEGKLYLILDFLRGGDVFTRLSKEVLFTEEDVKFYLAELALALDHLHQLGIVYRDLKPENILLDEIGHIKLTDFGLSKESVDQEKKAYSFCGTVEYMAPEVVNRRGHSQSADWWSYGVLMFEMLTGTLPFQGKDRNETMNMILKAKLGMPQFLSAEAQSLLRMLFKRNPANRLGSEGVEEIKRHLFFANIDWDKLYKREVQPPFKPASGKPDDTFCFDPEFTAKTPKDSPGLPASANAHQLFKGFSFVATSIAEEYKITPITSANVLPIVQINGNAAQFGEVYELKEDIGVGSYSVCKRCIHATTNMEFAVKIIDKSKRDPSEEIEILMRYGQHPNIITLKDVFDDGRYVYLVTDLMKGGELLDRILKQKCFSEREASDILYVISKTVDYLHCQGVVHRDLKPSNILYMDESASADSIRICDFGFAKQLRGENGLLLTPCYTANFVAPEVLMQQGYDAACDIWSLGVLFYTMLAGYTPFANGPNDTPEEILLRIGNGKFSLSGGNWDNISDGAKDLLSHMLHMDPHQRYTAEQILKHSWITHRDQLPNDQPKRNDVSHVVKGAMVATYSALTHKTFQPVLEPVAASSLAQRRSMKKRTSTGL", "sequence of UniProt Q15569 (whole entry, looked up)": "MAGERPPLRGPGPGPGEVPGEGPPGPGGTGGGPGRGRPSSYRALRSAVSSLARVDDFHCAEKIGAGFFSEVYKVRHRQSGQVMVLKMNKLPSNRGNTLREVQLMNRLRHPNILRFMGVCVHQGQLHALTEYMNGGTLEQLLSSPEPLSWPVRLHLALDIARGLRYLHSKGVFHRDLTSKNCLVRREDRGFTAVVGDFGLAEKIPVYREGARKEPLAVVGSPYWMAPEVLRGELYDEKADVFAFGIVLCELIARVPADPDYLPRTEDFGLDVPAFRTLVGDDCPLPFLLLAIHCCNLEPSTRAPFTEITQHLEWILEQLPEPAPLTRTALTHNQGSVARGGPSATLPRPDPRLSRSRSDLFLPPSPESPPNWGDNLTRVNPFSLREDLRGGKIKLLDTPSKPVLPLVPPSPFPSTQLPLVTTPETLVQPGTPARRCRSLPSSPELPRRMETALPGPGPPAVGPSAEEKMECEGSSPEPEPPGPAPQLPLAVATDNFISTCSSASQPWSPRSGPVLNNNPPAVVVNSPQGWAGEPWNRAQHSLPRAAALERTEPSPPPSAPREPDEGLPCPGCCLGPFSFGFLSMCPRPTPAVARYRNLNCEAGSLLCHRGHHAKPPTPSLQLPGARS", "sequence of UniProt Q07002 (whole entry, looked up)": "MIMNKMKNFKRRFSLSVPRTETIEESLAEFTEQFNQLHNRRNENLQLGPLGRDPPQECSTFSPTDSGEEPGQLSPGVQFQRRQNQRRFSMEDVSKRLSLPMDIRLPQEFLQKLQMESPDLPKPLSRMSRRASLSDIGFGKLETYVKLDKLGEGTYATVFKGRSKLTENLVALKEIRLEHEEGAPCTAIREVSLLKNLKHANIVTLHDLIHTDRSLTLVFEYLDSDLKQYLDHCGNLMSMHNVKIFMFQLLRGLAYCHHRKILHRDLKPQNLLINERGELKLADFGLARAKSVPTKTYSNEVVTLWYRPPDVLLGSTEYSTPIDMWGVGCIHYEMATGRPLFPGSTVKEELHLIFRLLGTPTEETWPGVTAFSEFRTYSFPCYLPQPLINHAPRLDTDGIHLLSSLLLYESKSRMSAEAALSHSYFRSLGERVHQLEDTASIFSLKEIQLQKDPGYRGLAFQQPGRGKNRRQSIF", "sequence of UniProt O15146 (whole entry, looked up)": "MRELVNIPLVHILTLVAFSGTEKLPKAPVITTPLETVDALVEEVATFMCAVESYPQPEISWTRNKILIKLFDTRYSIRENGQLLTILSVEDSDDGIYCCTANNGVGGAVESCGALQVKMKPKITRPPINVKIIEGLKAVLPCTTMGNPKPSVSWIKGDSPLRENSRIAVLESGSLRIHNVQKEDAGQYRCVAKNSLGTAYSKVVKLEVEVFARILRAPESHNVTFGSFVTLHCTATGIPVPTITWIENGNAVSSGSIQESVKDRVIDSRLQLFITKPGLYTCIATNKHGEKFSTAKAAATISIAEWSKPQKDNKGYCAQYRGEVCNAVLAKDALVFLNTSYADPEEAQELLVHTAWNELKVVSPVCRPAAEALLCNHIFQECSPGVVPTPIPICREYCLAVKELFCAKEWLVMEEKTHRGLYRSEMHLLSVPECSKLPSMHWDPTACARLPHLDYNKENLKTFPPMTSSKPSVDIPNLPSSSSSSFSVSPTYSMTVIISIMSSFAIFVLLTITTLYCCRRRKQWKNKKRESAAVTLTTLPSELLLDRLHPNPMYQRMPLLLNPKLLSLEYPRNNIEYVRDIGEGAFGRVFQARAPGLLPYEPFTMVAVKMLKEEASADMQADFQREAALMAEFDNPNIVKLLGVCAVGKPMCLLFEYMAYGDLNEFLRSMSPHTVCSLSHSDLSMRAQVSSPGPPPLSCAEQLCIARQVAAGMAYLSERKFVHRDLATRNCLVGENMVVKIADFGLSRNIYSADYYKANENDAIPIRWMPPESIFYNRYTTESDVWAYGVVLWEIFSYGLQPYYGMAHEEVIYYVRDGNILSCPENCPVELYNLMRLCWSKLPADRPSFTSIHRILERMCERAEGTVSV"}
{"data": "Block 1", "target": "Interleukin-1 receptor-associated kinase 1 (IRAK1, Homo sapiens, UniProt P51617)", "read-out": "enzyme activity", "mode": "inhibitor", "concentration": "0.5 µM", "baseline": "control", "sequence of UniProt P51617 (whole entry, looked up)": "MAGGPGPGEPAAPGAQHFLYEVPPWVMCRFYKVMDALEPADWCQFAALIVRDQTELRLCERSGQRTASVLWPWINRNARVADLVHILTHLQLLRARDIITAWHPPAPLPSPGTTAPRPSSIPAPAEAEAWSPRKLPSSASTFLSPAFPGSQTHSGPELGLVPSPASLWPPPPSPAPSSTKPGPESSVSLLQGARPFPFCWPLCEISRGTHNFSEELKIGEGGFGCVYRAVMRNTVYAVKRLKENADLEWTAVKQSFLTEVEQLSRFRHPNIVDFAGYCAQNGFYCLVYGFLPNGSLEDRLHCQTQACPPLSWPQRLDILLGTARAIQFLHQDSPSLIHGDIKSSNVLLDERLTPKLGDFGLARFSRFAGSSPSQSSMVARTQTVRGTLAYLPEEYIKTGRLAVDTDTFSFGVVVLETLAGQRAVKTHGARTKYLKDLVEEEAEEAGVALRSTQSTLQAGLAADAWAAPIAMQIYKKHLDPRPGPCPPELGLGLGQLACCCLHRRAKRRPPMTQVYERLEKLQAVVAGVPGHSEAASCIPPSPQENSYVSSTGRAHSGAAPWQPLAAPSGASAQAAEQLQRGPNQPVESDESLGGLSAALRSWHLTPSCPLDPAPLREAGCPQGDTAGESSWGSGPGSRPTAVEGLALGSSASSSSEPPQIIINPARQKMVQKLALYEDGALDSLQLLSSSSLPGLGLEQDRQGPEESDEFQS"}
{"SMILES": "CCN(CC)CCCCN1c2ccccc2Oc2ccc(Cl)cc21", "remaining activity": "118%"}
{"SMILES": "CC(C)n1cnc2c(Nc3cccc(Cl)c3)nc(NCCO)nc21", "remaining activity": "101%"}
{"SMILES": "COc1cc2c(Nc3ccc(Br)cc3F)ncnc2cc1OCC1CCN(C)CC1", "remaining activity": "87.7%"}
{"SMILES": "CNc1cc2c(Nc3cccc(Br)c3)ncnc2cn1", "remaining activity": "85.2%"}
{"SMILES": "O=c1c(-c2ccc(F)cc2)c(-c2ccncc2)[nH]n1-c1ccc(Cl)cc1", "remaining activity": "103%"}
{"SMILES": "CCCCc1c(-c2ccc(O)cc2)[nH]c2nccnc12", "remaining activity": "63.4%"}
{"SMILES": "N#C/C(=C(/N)SC1C=CC=CC1)c1cccc(C(O)c2ccncc2)c1 (stereo not drawn)", "remaining activity": "101%"}
{"SMILES": "Clc1ccc(Nc2nnc(Cc3ccncc3)c3ccccc23)cc1", "remaining activity": "94.1%"}
{"SMILES": "CC(C)(C)c1nc2c3cc[nH]c(=O)c3c3cc(F)ccc3c2[nH]1", "remaining activity": "76.3%"}
{"SMILES": "O=C(c1ccccc1)c1ccc(N2CCOCC2)cc1O", "remaining activity": "103%"}
{"SMILES": "FC(F)(F)c1ccc(/C=C/c2nc(COc3ccc(CCCCn4ccnn4)cc3)co2)cc1", "remaining activity": "99.5%"}
{"SMILES": "CC(C)N(CCC(=O)c1ccc2ccccc2c1)Cc1ccccc1", "remaining activity": "102%"}
{"SMILES": "NC(=O)c1ccc(-c2nc(-c3ccc4c(c3)OCCO4)c(-c3ccccn3)[nH]2)cc1", "remaining activity": "96.6%"}
{"SMILES": "COc1cc2c(N3CCN(C(=O)Nc4ccc(OC(C)C)cc4)CC3)ncnc2cc1OCCCN1CCCCC1", "remaining activity": "96.1%"}
{"SMILES": "Nc1nc(Nc2ccc(S(N)(=O)=O)cc2)nn1C(=S)Nc1c(F)cccc1F", "remaining activity": "16.9%"}
{"SMILES": "O=C(O)/C=C/c1cc(Br)c(Br)c(Br)c1Br", "remaining activity": "94.4%"}
{"data": "Block 2", "SMILES": "Cc1nc(C2CCN(C(=O)c3ccc(OC(F)(F)F)cc3N)CC2)c2ncc(N3CCN(C)CC3)cc2n1", "read-out": "cell-free assay", "method": "competition with immobilised ligand", "concentration": "1 µM"}
{"target": "Ribosomal protein S6 kinase alpha-6, N-terminal kinase domain (RPS6KA6, Homo sapiens, UniProt Q9UK32)", "remaining binding [%]": 100}
{"target": "Phosphatidylinositol 5-phosphate 4-kinase type-2 gamma (PIP4K2C, Homo sapiens, UniProt Q8TBX8)", "remaining binding [%]": 100}
{"target": "Muscle, skeletal receptor tyrosine-protein kinase (MUSK, Homo sapiens, UniProt O15146)", "remaining binding [%]": 100}
{"target": "Myosin light chain kinase (MYLK3, Homo sapiens, UniProt Q32MK0)", "remaining binding [%]": 100}
{"target": "Dual specificity testis-specific protein kinase 1 (TESK1, Homo sapiens, UniProt Q15569)", "remaining binding [%]": 100}
{"target": "Mitogen-activated protein kinase kinase kinase 20 (MAP3K20, Homo sapiens, UniProt Q9NYL2)", "remaining binding [%]": 95}
{"target": "Cyclin-dependent kinase 18 (CDK18, Homo sapiens, UniProt Q07002)", "remaining binding [%]": 100}
{"data": "Block 3", "target": "Sal-like protein 4, full length isoform A (SALL4, Homo sapiens, UniProt Q9UJQ4, residues 1-1053)", "method": "universal PBM", "form": "double-stranded DNA, one strand shown", "sample": "in vitro", "concentration": "600 nM", "notes": "8-mer, flanks averaged, mean of replicates", "reading": "higher = stronger binding", "sequence of UniProt Q9UJQ4 (whole entry, looked up)": "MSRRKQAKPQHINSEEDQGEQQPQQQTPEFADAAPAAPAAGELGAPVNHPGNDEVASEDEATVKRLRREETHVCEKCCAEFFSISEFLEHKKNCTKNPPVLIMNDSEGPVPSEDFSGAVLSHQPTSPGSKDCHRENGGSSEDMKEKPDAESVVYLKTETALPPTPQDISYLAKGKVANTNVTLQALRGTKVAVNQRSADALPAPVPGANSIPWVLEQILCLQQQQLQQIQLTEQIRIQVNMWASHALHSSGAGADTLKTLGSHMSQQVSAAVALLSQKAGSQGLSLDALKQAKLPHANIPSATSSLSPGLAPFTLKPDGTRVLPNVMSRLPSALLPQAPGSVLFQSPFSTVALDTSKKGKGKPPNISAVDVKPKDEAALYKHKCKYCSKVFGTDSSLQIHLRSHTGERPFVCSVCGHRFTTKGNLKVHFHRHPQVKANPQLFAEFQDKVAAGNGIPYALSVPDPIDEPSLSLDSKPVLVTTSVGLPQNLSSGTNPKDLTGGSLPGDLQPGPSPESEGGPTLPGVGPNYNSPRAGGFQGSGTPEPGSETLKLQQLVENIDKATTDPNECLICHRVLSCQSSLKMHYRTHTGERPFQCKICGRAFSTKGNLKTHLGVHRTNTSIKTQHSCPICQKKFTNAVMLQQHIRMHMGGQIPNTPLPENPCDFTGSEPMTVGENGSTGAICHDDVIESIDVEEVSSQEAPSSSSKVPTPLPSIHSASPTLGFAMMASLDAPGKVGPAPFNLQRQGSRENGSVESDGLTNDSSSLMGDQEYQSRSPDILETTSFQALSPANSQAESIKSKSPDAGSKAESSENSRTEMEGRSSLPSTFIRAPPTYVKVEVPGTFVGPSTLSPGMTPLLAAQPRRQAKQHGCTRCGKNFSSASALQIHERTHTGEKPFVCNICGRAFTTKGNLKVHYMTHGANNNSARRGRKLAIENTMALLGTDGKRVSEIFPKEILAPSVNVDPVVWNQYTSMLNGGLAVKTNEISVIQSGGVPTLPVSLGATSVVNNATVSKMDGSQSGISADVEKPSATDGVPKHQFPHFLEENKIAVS"}
{"Strand": "AGTAACGA", "E-score": 0.108}
{"Strand": "GGTAAAAC", "E-score": 0.0901}
{"Strand": "CAGAGCAG", "E-score": 0.0944}
{"Strand": "AAATTAGA", "E-score": 0.284}
{"Strand": "AGGCCCAC", "E-score": -0.35}
{"Strand": "CTGCGTTA", "E-score": 0.00347}
{"Strand": "CACCAATC", "E-score": -0.0254}
{"Strand": "TCTGAGCA", "E-score": -0.0612}
{"data": "Mixed results"}
{"SMILES": "CC(C)n1cnc(-c2ccc(F)cc2)c1-c1ncc(C(=O)Nc2ccc(N3CCN(C)CC3)cc2)[nH]1", "system": "human, idiopathic pulmonary fibrosis", "setting": "60 mg once daily, trial, treatment-emergent", "quantity": "patients with supraventricular extrasystoles", "result": "0%"}
{"SMILES": "COc1ccc(-c2c(Nc3ccccn3)[nH]c3c(C4=CCCCC4)c(-c4ccccc4)nn3c2=O)cc1", "test": "immunohistochemistry", "system": "cancer patients, paired tumour biopsies", "setting": "dose not given", "scale": "baseline: baseline, direction not given", "quantity": "mean SDMA H-score reduction", "result": "~36%"}
{"note": "A few entries again (block 2):"}
{"target": "Myosin light chain kinase (MYLK3, Homo sapiens, UniProt Q32MK0)", "remaining binding [%]": 100}
{"target": "Dual specificity testis-specific protein kinase 1 (TESK1, Homo sapiens, UniProt Q15569)", "remaining binding [%]": 100}
{"target": "Muscle, skeletal receptor tyrosine-protein kinase (MUSK, Homo sapiens, UniProt O15146)", "remaining binding [%]": 100}
{"target": "Cyclin-dependent kinase 18 (CDK18, Homo sapiens, UniProt Q07002)", "remaining binding [%]": 100}
{"target": "Phosphatidylinositol 5-phosphate 4-kinase type-2 gamma (PIP4K2C, Homo sapiens, UniProt Q8TBX8)", "remaining binding [%]": 100}
